Experimental data gathered from unrelated publications.
Protocols differ between the studies behind these lines. Several values in a cell are separate wells, animals, samples, runs or records.
Target: Histamine H2 receptor (HRH2, Homo sapiens, UniProt P25021)

Structure (SMILES) | test | test system | setting | scale | measurement | value
Cc1cc(-c2ccc3ccccc3c2)nnc1NCCN1CCN(C)CC1 | antagonist |  | concentration not given |  | antagonist activity | negative
N[C@H](C(=O)N1CCCC1)C1CCN(c2nccc3c(-c4ncc(Cl)cc4Cl)cccc23)CC1 | functional response, agonist |  | 10 µM |  | response | 2%
CCOC(=O)[C@](CC)(CCCSCCOCCOCCNC(=O)c1ccc(-c2c3ccc(=N)c(S(=O)(=O)O)c-3oc3c(S(=O)(=O)O)c(N)ccc23)c(C(=O)O)c1)NC(=O)c1ccc(C2CC2)c(Cc2ccc(F)cc2)n1 | ligand displacement, radioligand |  | 10 µM |  | inhibition | 15%
C/C(=N\OCCCN1CCCCC1)c1ccc(C(F)(F)F)cc1 | antagonist, cAMP |  | 10 µM |  | inhibition | 27.5%
CCc1nnc(-c2c(OC)cc(-c3cnc4cc(-c5cnn(C)c5)ccn34)cc2OC)o1 | antagonist radioligand, radioligand binding |  | 10 µM, SafetyScreen44 H2 replicate 2 | lower = stronger displacement | remaining binding | 99.4%
CN[C@@H]1[C@H](O)[C@H](NC)[C@H]2O[C@]3(O)[C@H](O[C@@H]2[C@H]1O)O[C@H](C)C[C@H]3NC(=O)Cc1cc(Cl)ccn1 | ligand displacement, radioligand |  | 10 µM |  | inhibition | -7%
COc1ccc(F)cc1S(=O)(=O)Nc1cnc2c(c1)C(=O)NCCO2 | ligand displacement, radioligand |  | 10 µM |  | inhibition | 10%
Cc1cc(Nc2nc(C[C@@]3(C(=O)O)CCN(Cc4cccc(Cl)c4F)[C@H](C)C3)cc(C)c2F)[nH]n1 | agonist |  | 10 µM |  | activation | -0.05%
Cc1sc2c(c1C)C(c1ccc(Cl)cc1)=NC(CC(=O)OC(C)(C)C)c1nnc(C)n1-2 (centres unmarked) | ligand displacement, radioligand |  | 1 µM |  | inhibition | -27%
CCO[C@H]1[C@H](O)[C@@H](N)[C@@H](O[C@H]2[C@H](O[C@@H]3O[C@H](CO)[C@@H](O[C@H]4O[C@@H](CN)[C@@H](O)[C@H](O)[C@H]4N)[C@H]3O)[C@@H](O)[C@H](N)C[C@@H]2N)O[C@@H]1CO | radioligand binding |  | 10 µM, 1% DMSO |  | specific binding | -12%
CS(C)(=O)=Nc1ccc(-c2ccc(-c3nc4cc(O[C@@H]5CO[C@H]6[C@@H]5OC[C@H]6O)[nH]c4cc3F)cc2)cc1 | calcium signal, antagonist |  | 10 µM |  | inhibition | 13%
Cc1ccc2c(n1)c(-c1cccc(S(C)(=O)=O)c1)c(C)n2C/C(F)=C/CN | ligand displacement, radioligand |  | 10 µM |  | inhibition | 3%
CCN(CC)CCOc1ccc(-c2nnn(Cc3ccc(OC)cc3)c2N)cc1 | radioligand binding | HEK293 | 10 µM, safety profiling |  | inhibition | -2.74%
O=C(O)c1ccc(-c2nc(-c3ccccc3Cl)c3sccn23)cc1 | radioligand binding, safety screen panel |  | 10 µM | relative to: control | specific binding | 115% and 111%
